# Experimental data pooled from the literature.
# Protocols differ between the studies behind these lines.
# Target: Ephrin type-B receptor 3 (EPHB3, Homo sapiens, UniProt P54753)
# Residues used in one study (P54753 34-998): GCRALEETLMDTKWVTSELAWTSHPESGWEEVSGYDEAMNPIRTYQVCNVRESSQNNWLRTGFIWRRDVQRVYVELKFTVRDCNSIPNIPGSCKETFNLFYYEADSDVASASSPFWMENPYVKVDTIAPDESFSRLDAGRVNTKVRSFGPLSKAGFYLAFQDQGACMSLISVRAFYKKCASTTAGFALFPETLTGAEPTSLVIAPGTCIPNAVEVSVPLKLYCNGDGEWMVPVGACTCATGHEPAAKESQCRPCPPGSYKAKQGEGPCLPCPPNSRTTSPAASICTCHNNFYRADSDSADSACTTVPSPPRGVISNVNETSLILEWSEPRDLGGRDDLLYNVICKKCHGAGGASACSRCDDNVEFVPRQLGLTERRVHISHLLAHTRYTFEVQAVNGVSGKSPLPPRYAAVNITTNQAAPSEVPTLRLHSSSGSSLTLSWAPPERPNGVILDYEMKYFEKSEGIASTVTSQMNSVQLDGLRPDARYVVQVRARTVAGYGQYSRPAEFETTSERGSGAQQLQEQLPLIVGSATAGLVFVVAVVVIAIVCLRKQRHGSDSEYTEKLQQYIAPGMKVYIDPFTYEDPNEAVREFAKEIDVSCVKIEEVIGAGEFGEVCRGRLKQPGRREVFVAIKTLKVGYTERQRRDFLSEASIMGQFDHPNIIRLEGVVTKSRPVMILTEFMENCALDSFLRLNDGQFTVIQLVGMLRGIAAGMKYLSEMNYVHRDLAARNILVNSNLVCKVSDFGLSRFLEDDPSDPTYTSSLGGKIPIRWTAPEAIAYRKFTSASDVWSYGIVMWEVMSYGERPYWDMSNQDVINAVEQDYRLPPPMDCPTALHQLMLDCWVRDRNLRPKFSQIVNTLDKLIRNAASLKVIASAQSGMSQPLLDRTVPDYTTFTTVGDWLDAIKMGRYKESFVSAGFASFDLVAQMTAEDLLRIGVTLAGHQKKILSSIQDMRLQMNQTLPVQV
SMILES,test,conditions,how to read,quantity,value
CN1CC[C@@H](COc2cnc(C#N)cc2-c2ccn3nc(NC(=O)C4CC4)cc3c2)C1,"enzyme activity, inhibitor",1 µM,,inhibition,1%
COc1ccc(NC(=O)Nc2ccc3c(c2)C(=O)N(C(C)CO)CC(C)C(CN(C)Cc2ccc4c(c2)OCO4)O3)cc1 (stereo not drawn),"kinase activity, KinaseProfiler","0.03 µM, species human",relative to: control,remaining activity,90%
C=CC(=O)N1CCc2ccc(-n3c(=O)ccc4cnc5ccc(-c6cnn(C)c6)cc5c43)cc21,KINOMEscan,1 µM,relative to: DMSO control,remaining binding,100%
Cc1cccc(-c2ccc3nc(NC(=O)C4CCOCC4)nn3c2)c1,"enzyme activity, Dundee kinase panel",10 µM,,remaining activity,78%
Cc1nc2c(F)cc(-c3nc(Nc4ccc(CNC(=O)CCCCCCC(=O)NO)cc4)ncc3F)cc2n1C(C)C,"enzyme activity, inhibitor",1 µM,,inhibition,27%
CNC(=O)C1CCN(c2cc(C)c(F)cc2NC(=O)c2ccc(-c3cc(O)ccc3C)c(C)c2)CC1,"binding, competition with immobilised ligand",1 µM,,remaining binding,2.7%
NC(=O)[C@@H](O)C[C@H]1CCc2sc3ncnc(O[C@H]4CC[C@H](N5CCOCC5)CC4)c3c21,"enzyme activity, inhibitor",10 µM,,inhibition,12%
C=CC(=O)N1CCCC(n2c(=O)c3ncccc3n(Cc3ccc(Oc4ccccc4)cc3)c2=O)C1 (stereo not drawn),"cell-free assay, competition with immobilised ligand",1 µM,,remaining binding,100%
Cc1cccc(-c2ccc3nc(NC(=O)C4CCCCC4)nn3c2)c1,"enzyme activity, Dundee kinase panel",10 µM,,remaining activity,93%
Nc1ncc2c(n1)-c1c([nH]c3ccc(C4=CCOCC4)cc13)CCC2,"binding, competition with immobilised ligand",1 µM,,remaining binding,87%
C=CC(=O)Nc1cccc(-c2cnc3[nH]cc(C(=O)NC(C)(C)C)c3n2)c1,"enzyme activity, inhibitor",0.1 µM,,inhibition,1%
Nc1nc(Nc2ccccc2)sc1C(=O)c1ccccc1,"enzyme activity, inhibitor",10 µM,,remaining activity,78%
CNC1C[S+]2CC[S+]3CC[S+](C1)[Ru-4]321([N]=C=S)[n]2c3ccc(OC)cc3c3c4c(c5cc(F)c[n+]1c5c32)C(=O)NC4=O (stereo not drawn),KinomeScan,0.1 µM,relative to: untreated,remaining binding,90%
CCN1CCN(Cc2ccc(C(=O)Nc3ccc(C)c(NCc4cnc5[nH]ccc5c4OC)c3)cc2C(F)(F)F)CC1,"binding, competition with immobilised ligand",1 µM,,remaining binding,19%
O=C(Cc1ccc(OCc2ccccc2)cc1)NC1(C(=O)O)CCN(C(=O)c2ccc(-c3cccc(Cl)c3)cc2)CC1,"enzyme activity, inhibitor",10 µM,,activity vs control,102%
Cc1cccc(O[C@H]2CCC[C@@H](C(C)CNCc3ccncc3)C2)c1 (relative stereo),cell-free assay,10 µM,,inhibition,-6%
COc1cc(Nc2nc(C)cc(-c3cnn4nc(OC)ccc34)n2)cc(C(F)(F)F)c1,inhibitor,1 µM,relative to: control,remaining activity,97%
CC(C)=CC1OC(C)(C)C2C=C3C(=O)C(Cl)=CC(O)C3C3C(O)C4OC4C(=O)C132 (stereo not drawn),"cell-free assay, competition with immobilised ligand",10 µM,,remaining binding,89%

# For quick reference, copied from above:
SMILES,test,conditions,how to read,quantity,value
CN1CC[C@@H](COc2cnc(C#N)cc2-c2ccn3nc(NC(=O)C4CC4)cc3c2)C1,"enzyme activity, inhibitor",1 µM,,inhibition,1%
